# Assay results from different studies.
# Protocols differ between the studies behind these lines.
# UniProt Q8WTQ7, sequence (whole entry, looked up): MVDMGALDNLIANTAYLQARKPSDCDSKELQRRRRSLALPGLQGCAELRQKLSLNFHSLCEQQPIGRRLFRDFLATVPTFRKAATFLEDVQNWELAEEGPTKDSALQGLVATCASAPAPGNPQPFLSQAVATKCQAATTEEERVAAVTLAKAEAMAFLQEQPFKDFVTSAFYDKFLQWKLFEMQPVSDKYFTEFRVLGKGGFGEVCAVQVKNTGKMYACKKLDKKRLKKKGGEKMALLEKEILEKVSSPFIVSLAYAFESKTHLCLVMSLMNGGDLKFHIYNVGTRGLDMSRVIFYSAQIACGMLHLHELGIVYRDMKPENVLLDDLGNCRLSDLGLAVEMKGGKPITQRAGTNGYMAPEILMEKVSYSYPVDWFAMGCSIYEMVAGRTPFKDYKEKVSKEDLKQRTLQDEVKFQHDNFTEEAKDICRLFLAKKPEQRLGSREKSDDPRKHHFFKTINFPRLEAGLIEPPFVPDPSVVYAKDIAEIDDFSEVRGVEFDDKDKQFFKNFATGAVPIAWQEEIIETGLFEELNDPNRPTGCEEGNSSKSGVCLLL
# UniProt P29322, sequence (whole entry, looked up): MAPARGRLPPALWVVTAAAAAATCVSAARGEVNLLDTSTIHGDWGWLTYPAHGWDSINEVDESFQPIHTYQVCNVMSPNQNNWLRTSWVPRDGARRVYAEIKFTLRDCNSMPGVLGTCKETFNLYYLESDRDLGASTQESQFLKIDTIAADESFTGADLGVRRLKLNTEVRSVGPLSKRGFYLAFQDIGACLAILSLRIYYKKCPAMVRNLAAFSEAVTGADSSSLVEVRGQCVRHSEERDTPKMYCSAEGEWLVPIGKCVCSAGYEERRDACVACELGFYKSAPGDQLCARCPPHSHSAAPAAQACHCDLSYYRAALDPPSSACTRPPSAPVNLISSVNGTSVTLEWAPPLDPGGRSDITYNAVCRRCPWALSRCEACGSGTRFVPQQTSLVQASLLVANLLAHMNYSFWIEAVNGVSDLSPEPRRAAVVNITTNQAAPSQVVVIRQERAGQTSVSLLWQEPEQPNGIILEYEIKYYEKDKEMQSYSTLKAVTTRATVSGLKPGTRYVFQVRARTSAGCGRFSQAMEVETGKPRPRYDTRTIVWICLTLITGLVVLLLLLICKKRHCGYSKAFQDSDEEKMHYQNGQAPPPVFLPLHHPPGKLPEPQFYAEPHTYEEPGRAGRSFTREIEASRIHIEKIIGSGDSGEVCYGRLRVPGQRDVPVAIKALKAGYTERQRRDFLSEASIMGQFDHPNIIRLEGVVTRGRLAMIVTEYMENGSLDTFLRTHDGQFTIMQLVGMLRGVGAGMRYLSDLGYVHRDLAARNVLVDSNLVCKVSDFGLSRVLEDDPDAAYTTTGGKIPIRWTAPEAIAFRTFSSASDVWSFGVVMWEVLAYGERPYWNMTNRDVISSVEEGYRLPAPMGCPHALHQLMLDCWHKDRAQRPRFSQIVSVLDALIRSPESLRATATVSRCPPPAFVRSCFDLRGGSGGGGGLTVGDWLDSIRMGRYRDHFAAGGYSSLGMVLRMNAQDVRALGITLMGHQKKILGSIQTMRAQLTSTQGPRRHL
# UniProt P06213, sequence (whole entry, looked up): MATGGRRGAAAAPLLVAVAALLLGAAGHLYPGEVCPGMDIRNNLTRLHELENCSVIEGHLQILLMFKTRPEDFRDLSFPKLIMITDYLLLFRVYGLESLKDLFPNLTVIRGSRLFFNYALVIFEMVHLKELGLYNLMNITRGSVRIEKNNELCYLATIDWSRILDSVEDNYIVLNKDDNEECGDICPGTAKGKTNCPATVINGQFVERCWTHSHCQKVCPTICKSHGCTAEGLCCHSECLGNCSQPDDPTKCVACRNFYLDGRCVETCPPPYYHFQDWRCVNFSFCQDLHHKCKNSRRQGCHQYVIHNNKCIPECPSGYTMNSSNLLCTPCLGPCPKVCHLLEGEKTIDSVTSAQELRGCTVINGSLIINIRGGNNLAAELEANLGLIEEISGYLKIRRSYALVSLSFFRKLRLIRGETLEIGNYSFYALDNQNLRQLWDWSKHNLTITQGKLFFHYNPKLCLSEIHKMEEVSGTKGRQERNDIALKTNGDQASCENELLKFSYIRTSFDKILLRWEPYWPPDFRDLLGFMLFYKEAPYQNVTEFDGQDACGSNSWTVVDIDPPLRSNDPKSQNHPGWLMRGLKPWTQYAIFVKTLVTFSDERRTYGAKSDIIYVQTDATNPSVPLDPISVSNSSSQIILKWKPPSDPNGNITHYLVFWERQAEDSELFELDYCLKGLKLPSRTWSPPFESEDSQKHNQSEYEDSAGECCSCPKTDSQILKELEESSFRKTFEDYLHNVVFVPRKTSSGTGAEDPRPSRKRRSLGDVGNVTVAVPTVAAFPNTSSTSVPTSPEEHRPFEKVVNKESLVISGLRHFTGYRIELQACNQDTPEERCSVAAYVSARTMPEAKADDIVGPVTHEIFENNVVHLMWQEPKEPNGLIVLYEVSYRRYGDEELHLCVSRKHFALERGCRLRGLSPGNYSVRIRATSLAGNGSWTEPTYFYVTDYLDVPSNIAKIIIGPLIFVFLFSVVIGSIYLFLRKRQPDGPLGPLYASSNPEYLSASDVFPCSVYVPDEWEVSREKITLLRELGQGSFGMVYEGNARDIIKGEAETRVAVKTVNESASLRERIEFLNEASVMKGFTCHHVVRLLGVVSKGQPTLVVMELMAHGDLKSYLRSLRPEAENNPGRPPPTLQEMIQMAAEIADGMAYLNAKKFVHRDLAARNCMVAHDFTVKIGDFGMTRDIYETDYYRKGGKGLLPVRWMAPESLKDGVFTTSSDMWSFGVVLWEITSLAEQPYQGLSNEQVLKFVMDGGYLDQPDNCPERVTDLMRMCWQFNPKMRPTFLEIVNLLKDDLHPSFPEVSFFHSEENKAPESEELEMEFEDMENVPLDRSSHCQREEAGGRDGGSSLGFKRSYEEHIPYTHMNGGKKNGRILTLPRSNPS
# UniProt P54760, sequence (whole entry, looked up): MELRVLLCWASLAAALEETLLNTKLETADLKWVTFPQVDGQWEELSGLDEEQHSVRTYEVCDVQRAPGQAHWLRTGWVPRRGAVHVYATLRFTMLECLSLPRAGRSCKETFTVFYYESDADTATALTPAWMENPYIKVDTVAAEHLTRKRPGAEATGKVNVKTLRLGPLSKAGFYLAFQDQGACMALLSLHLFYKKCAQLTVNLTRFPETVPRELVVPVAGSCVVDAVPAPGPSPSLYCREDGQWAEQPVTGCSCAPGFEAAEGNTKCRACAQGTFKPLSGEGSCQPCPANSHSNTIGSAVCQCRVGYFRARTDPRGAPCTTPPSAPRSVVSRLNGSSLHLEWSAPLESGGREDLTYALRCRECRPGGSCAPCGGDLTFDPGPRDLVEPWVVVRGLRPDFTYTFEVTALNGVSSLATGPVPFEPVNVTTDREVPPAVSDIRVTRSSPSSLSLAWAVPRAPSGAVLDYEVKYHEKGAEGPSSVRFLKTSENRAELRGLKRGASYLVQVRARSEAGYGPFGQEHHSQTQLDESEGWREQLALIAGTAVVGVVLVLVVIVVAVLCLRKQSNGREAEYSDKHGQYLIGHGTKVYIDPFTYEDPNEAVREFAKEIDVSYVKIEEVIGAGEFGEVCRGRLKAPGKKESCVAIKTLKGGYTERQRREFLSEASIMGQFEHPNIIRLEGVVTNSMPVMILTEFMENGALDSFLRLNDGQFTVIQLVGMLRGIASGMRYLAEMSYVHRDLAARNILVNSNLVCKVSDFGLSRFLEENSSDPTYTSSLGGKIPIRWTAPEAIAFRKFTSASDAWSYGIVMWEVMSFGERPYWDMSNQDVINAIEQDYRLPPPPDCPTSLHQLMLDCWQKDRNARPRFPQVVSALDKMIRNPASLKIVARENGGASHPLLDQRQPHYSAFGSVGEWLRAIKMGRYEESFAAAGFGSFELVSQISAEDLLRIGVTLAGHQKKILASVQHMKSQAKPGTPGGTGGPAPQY
# UniProt Q01959, sequence (whole entry, looked up): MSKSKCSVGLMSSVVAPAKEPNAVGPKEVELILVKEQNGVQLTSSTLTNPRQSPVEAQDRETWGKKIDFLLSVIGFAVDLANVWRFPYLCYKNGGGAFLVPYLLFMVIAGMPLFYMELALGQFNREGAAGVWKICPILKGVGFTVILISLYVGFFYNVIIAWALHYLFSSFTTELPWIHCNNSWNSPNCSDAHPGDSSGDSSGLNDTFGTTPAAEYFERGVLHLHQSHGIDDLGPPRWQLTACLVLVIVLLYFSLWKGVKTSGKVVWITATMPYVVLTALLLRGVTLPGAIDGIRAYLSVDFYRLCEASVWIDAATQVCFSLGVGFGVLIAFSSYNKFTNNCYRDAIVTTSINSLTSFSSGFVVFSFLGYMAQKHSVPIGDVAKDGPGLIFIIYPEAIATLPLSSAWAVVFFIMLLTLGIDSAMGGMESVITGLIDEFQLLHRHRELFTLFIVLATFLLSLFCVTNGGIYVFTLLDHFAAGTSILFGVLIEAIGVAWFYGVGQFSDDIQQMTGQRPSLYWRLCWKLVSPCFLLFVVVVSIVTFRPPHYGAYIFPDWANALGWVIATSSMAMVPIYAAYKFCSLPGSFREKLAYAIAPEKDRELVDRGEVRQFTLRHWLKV
# UniProt Q04771, sequence (whole entry, looked up): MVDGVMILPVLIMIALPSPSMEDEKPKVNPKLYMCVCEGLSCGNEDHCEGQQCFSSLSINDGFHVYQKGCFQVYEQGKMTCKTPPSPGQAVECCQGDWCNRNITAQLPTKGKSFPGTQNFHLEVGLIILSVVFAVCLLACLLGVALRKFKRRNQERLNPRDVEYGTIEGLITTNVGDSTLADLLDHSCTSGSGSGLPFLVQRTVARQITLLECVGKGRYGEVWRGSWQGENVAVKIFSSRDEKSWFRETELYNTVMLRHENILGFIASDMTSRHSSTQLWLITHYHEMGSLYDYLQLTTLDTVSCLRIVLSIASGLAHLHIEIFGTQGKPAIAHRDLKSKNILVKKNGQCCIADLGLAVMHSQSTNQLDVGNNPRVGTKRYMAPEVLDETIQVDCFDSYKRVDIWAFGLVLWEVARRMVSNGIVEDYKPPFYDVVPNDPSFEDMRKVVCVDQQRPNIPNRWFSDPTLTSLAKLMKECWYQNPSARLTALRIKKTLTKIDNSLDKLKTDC
SMILES,target or system,test,system,conditions,scale,measurement,result
CNc1ncc2c(/C=C/C(=O)N3CCC(OC)CC3)nn(Cc3cccc(C(F)(F)F)c3)c2n1,"EPHB4 (Homo sapiens, UniProt P54760)","kinase activity, inhibitor",,1 µM,relative to: untreated control,remaining activity,78%
COc1cc(Nc2ncc3c(n2)-c2ccc(Cl)cc2C(c2c(F)cccc2OC)=NC3)ccc1C(=O)O,FGR,kinase activity,,1 µM,,remaining activity,3%
COc1cc(N2CCN(C)CC2)ccc1Nc1nc(N)n(C(=S)NCc2c(Cl)cccc2Cl)n1,"Insulin receptor (INSR, Homo sapiens, UniProt P06213)",enzyme activity,,10 µM,relative to: control,remaining activity,0%
Cn1cc(-c2ccc(-c3cncc(Cl)c3N3CCC4(CCNC4=O)CC3)cc2)cn1,COLO 205,"gene expression, microarray, item: HMOX1 mRNA",,"concentration not given, 6 h",relative to: untreated cells,log2 fold change,2.23
Cc1cc(Nc2cc(N3CCN(C)CC3)nc(Sc3ccc(NC(=O)C4CC4)cc3)n2)[nH]n1,"EPHA8 (Homo sapiens, UniProt P29322)","kinase activity, KinaseProfiler",,"0.03 µM, species human",relative to: control,remaining activity,89%
N[C@@H]1CC[C@@H](c2ccc(Cl)c(Cl)c2)c2ccccc21,"SLC6A3 (Homo sapiens, UniProt Q01959)",dopamine uptake,,"1e-05 µM, 0.03333 h, added: [3H]dopamine",relative to: no inhibitor,remaining activity,113%
COc1cc(-c2cncc3c2CN(C)Cc2cc(N4CCNCC4)ccc2-3)cc(OC)c1OC,"ACVR1 (Homo sapiens, UniProt Q04771)",kinase activity,,"1 µM, human enzyme, added: ATP 10 µM",relative to: DMSO control,remaining activity,0%
C=CC(=O)N1CCC[C@@H](n2nc(-c3ccc(Oc4ccccc4)cc3)c3c(N)ncnc32)C1,"DYRK2 (Homo sapiens, UniProt Q92630)",,,10 µM,,remaining activity,85.6%
O=C(O)c1ccc(Nc2ncc3c(n2)-c2ccc(Cl)cc2C(c2c(F)cccc2F)=NC3)cc1,CaMKIIγ(h),kinase activity,,1 µM,,remaining activity,112%
O=C(O)CCCC[C@@H]1SC[C@@H]2NC(=O)N[C@@H]21,,"binding, MIDAS equilibrium dialysis LC-MS",A2AR-BRIL thermostabilized,concentration not given,relative to: no-protein control,log2 fold change,-0.618
O=C(NC1CCC1)c1ccc2nc(-c3cccc(NS(=O)(=O)NCCN4CCCCC4)c3)cn2c1,"PNCK (Homo sapiens, UniProt Q6P2M8)",enzyme activity,,10 µM,,remaining activity,100%
O=C(O)c1cc(=O)[nH]c(=O)n1[C@@H]1O[C@H](COP(=O)(O)O)[C@@H](O)[C@H]1O,,"binding, MIDAS equilibrium dialysis LC-MS",A2AR-BRIL thermostabilized,concentration not given,relative to: no-protein control,log2 fold change,-0.181
COc1cc(F)ccc1-c1ncnc(Nc2cccc(C[S@](C)(=N)=O)c2)n1,"GRK7 (Homo sapiens, UniProt Q8WTQ7)",kinase activity,,"10 µM, added: 10 µM ATP",,remaining activity,95%

# Repeated from above:
SMILES,target or system,test,system,conditions,scale,measurement,result
COc1cc(F)ccc1-c1ncnc(Nc2cccc(C[S@](C)(=N)=O)c2)n1,"GRK7 (Homo sapiens, UniProt Q8WTQ7)",kinase activity,,"10 µM, added: 10 µM ATP",,remaining activity,95%
